Experimental data collected from several papers.
Parts stem from different laboratories: compare values within a part only.

Series 1 — method: protein-binding microarray; form: double-stranded DNA, one strand shown; medium: in vitro; tested at: 250 nM; setting: 60-bp whole probe; together with: salmon DNA 0.4 mg/ml; relative to: random background probes; direction: higher = stronger binding; all sequences stand within: GCCTAGCAC … GTCTTGATTCGCTTGACGCTGCTG
Target: Interferon regulatory factor 5, full length, phosphomimetic (IRF5, Homo sapiens, UniProt Q13568-2, residues 1-514, K96S/S451D/S453D/S456D/S462D)
Sequence | log fluorescence
GACGGTTTCGACACTCGGGACGTGCTA | 4.9 z-score
GACGGACGGCTACTGCTGACGTGCTAG | -0.718 z-score
TTAGGTTTCGGTACCGGTTAGTGCTAG | 9.96 z-score
TTAGGTTTCGGTCTCGATTAGTGCTAG | 10.3 z-score
GACGCTCTCAGTCTCGAGACGTGCTAG | 0.094 z-score
TTAGGTTTCGGGTATTGGTTAGTGCTA | 8.51 z-score
TTAGACCTCAGTATCGATTAGTGCTAG | 6.6 z-score
TTATGTTTCCTTATCCTTTAGTGCTAG | 1.6 z-score
TTAGATATGGGGTATCGATTAGTGCTA | 2.36 z-score
GACGATTTCATTTTCGAGACGTGCTAG | 4.08 z-score
TTAGATATCAGTCTCGATTCGTGCTAG | 1.79 z-score
TTAGGACTGGGGGTTCGGTTAGTGCTA | 0.497 z-score
TCACATATCGGGGTGCGCACTGTGCTA | 0.692 z-score
GAAGATGTCAAACTCACTCAGTGCTAG | -0.282 z-score
TTAGAACTGGGGACTGGATTTGTGCTA | -0.198 z-score
TTCCAATTCTTTTTATGCTTGTGCTAG | 1.47 z-score
TCATTTTTCCTAATTGAACTGTGCTAG | 0.584 z-score
ATAGGACTGGGACTGGGTTAGTGCTAG | -0.706 z-score
TCATCTCTCAAAAGTCACACTGTGCTA | 0.302 z-score

Series 2 — method: RNA Bind-n-Seq; form: RNA; medium: in vitro; tested at: 200 nM; setting: whole 134-nt RNA, ends assumed; together with: 150 mM LiCl; relative to: input library; direction: higher = stronger binding; each molecule: 7-deaza-guanosine replaces G
Target: Fragile X messenger ribonucleoprotein 1, C-terminal low-complexity region (Fmr1, Mus musculus, UniProt P35922)
All sequences stand within: GGGAGUUCUACAGUCCGACGAUC … UGGAAUUCUCGGGUGUCAAGG
Sequence | log2 enrichment
UGGCCCUGGUGGCAUGCGGGGAGGAAGAGGUGGCCUCAUGGAUCGUGGUGGUCCCGGUGGAAUGUUCAGAGGUGGCCGUGGUGAAGACAG | -0.932
UGGCCCUGGUGGCAUGCGGGGAGGAAGAGGUGGCCUCAUGGAUCGUGGUGGUCCCGGUGGAAUCUUCAGAGGUGGCCGUGGUGGAGACAG | -0.217
ACCAUGCAGGUGGGCAUCUUUGGGAAGUGGGGCAAGGGGGGGAUAGGGAGGGGGGUAACACUUUGAGAACAGGUGGUCCCAGGUCGUUUC | 1.33
CAAGUCCUGUGCUACACAUCGUAUGUACCGAAUCGGAAAAAGGAAAGGAAAAAGGAAAGUAUUAUGUUACGCCGUUCGGAUCUGCACUUC | -0.766
CCUCAAGUCCUGUGCUACACAUCGUAUGUACCGAAUCGGAGGGAGGGGAGGGGAAAGUAUUAUGUUACGCCGUUCGGAUCUGCACUUCCA | -1.14
UAACUUUAGAGGAGGAUCUGAUGGAUAUGGCAGUGGACGUGGAUUUGGGGAUGGCUAUAGUGGGUAUGGAGGAGGACCUGGAGGUGGCAA | 0.345
CACAGACAACACGCACCCACACAGACACAGAGGGAAGGGGUUGGGAUGGGGACAGGGUGCACAGCAGGGCGGGGUAGCACCCCAGCCCCU | 1.62
CAAGUCCUGUGCUACACAUCGUAUGUACCGAAUCGGCCCGGCCCGGGGCCCGGGGAAAGUAUUAUGUUACGCCGUUCGGAUCUGCACUUC | -1.27
CCUGUGCUACACAUCGUAUGUACCGAAUCGGGGUUUGGGGAAAAAGGGGAAAAAAAGGGGAAAGUAUUAUGUUACGCCGUUCGGAUCUGC | -0.193
CCUCAAGUCCUGUGCUACACAUCGUAUGUACCGAAUCGGAGGGGAGGAGGGGAAAGUAUUAUGUUACGCCGUUCGGAUCUGCACUUCCAG | -0.418
UCAAGUCCUGUGCUACACAUCGUAUGUACCGAAUCGGUUUGGUUUUUGGUUUGGAAAGUAUUAUGUUACGCCGUUCGGAUCUGCACUUCC | -1.45

Series 3 — method: universal PBM; form: double-stranded DNA, one strand shown; medium: in vitro; tested at: 600 nM; direction: higher = stronger binding
Target: Sal-like protein 4, full length isoform A (SALL4, Homo sapiens, UniProt Q9UJQ4, residues 1-1053)
Chain of UniProt Q9UJQ4 (whole entry, looked up): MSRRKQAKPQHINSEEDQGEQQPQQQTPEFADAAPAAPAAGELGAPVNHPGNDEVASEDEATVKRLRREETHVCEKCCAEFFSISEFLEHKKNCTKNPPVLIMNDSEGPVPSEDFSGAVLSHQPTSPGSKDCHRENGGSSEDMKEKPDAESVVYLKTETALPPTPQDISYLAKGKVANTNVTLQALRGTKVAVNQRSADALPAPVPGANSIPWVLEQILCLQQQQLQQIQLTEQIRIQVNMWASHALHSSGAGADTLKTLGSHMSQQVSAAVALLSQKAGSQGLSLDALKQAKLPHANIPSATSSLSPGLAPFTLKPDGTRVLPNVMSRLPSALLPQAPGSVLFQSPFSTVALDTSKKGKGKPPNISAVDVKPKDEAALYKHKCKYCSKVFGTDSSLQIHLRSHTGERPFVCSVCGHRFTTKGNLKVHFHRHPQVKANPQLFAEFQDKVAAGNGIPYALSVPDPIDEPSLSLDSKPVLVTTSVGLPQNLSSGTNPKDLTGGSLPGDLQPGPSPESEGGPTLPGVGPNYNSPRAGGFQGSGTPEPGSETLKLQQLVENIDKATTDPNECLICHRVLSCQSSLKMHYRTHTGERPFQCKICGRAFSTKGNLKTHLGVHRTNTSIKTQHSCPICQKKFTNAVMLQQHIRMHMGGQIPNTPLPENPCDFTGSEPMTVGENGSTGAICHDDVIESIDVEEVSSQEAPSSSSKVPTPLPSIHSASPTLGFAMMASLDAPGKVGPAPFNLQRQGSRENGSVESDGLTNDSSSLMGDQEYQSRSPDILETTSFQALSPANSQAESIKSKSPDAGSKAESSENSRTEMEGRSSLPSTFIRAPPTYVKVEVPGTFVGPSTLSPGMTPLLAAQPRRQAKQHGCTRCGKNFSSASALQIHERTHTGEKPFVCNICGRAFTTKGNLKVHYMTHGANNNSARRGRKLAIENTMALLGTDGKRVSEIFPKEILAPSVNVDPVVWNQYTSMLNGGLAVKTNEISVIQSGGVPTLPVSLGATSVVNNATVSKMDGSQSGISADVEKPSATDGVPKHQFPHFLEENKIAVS
Setting: 8-mer, flanks averaged, mean of replicates
Sequence | E-score
ACAACGGC | -0.241
CAGTCTGA | -0.0887
ACCAAATG | -0.0187
CGTCATAG | 0.14
CTTGCAAC | -0.0031
ATAAATAC | 0.352
CTAACTGC | -0.179
AACTCCCA | -0.0544
CGTGTCTC | -0.00304
AAGTCGAC | 0.052
CACTATCG | -0.0152
CGCATCCA | -0.149
CCCTTGCA | -0.22
CAGGTCGG | -0.309
AGCGCCCA | -0.299
ATGAGACG | -0.0805
AGTATTAA | 0.351
GAAAGGTC | -0.0363
TGCTAACA | 0.0462
CTATCGGC | -0.0909
GAGAGCCC | -0.341
CGGGCCCG | -0.202
CGTTTCAA | 0.0722
AGCCTTTC | -0.0992
GGTCGGGA | -0.23

Series 4 — method: RNA Bind-n-Seq; form: RNA; medium: in vitro; tested at: 365 nM; relative to: no-protein control; direction: higher = stronger binding
Target: RNA binding protein fox-1 homolog 2, RRM domain, GST-SBP tag (RBFOX2, Homo sapiens, UniProt O43251-10, residues 100-194)
Setting: natural RNA segment, single round, ends assumed
All sequences stand within: GGGAGUUCUACAGUCCGACGAUC … UGGAAUUCUCGGGUGCCAA
Construct (chain): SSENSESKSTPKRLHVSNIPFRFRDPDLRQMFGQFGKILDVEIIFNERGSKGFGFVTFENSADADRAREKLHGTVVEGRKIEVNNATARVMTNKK
Sequence | RBNS enrichment (R)
UUGUGUAUAGGACUGCGUUCGUAGGCAUCCCCCCAGUUAUUCUGAAGGUCCUGUGCUGAUGGAGGCAUGACAGUCCUCUCGCAGCCUGAGGAGGGUUUUGUUCUGUCUGU | 5.12
UGUAAAACACAUGGCUUCUUCUGUGUAUAUUUUUUAAAAUUAAAGACUUGCACAUUUAAAAAACUGUUUUGUGGAUCCAGUUUGUGAACUUAUCAGUUGACAGAAGGACU | 0.44
CUCAGGCCCGCCUCCAACCCCGAGACCUCAGCUGUGCCUUAUCACAGAGAUGGCGCUGCAGGGCCCAGAUGUGUGACUGGGCAUGUUUCCAGGAAAGAGGCCAUCUCUUG | 1.78
CAGAACAUAGCCUGCCAGCUCAUGGGUGCCAGUGGUUCUCAACUUGUGAGUUGCAACUCCUUUGUCAAACCUCUAGCUCAACUCAAAACAGUAGCAAAAUUAAUUGUGAA | 0.591
AUGGGGGCCCAAAGCUCAGGGCUGGGGAGCCUGGGGUCCCCACUUGAAUCUCCAGCAGGAGGGUCCUUCUCUCCCUGGCCCGUCCUCCUCCCACCCCCUCCCCCUGGGGG | 0.421
CGGGAUUAGCUUAGACAUCCUUGCAAAGCGAUCACUUUCAAUAAAUUGGGAAAUUGCUGCUCCAGCAAUGCCUCCUGCGUCUCAGAUGAUCCUUCCUCCGGCCUCGCCUG | 0.269
CCACGUUGCUGUGUCGUGAGGUGCAGCGGGUCACCCUGUGGCCCGUCCUGUGACCCAUAUUUAGCCGUGUUUGGGACUCCGUGUCUUCAAUGGUUUGUUAGUUGCCAUUA | 0.32
UGGAGGCUUCAGUGACGACAGGCAGUUGUCACAAAAACUCACUCAUCAACUUCUUGGUGAAUUUGACAGGCAAGAAGAUGACAUUCACUUAGUGACAUUAUGUGUGACAG | 0.27
AGAAGUAAAGUUUAUUUCAUGGAUUAUUUAUGAGAGCUAAUUUAAGGAUGACUUUUUUUCUGAUUCAAAAGUGAACUUGAUUUUAAAAACCAGUCAAGAGCAAUCAAAGC | 0.476
AGCCGCUCAUGGACCAUUAGACUUGAGAAGACGACCCACGUGGUGACUGCAAAGCCCUGGGUACUUGCCUUCAUGUUCUGGUUUGGUUUUCCCUUUUUCUGCUGCUCUUG | 1.93
UUCCUCUAGAAAUCCCAGCAGAAUCUGUUGCCUCCCCCAACCCCUAACUUUGCCACUUCAAGCCUCAAGACAGAUUCAUGUAGCAGUUCCUCAAAACCCCCUGGAGGGGC | 0.792
GGCGUCGCCGGAAACCCAGGGAACCUCUCUGAAGUGACACCUCACCCCUACACACCGUCCGUUCACCCCCGUCUCUUCCUUCUGCUUUUCGGUUUUUGGAAAGGGAUCCA | 0.535

Series 5 — method: RNA Bind-n-Seq; form: RNA; medium: in vitro; tested at: not given; relative to: input RNA pool; direction: higher = stronger binding
Target: RING finger protein unkempt homolog, zinc fingers 1-6, GST-SBP tag (UNK, Homo sapiens, UniProt Q9C0B0, residues 30-357)
Chain of UniProt Q9C0B0 (30-357, looked up): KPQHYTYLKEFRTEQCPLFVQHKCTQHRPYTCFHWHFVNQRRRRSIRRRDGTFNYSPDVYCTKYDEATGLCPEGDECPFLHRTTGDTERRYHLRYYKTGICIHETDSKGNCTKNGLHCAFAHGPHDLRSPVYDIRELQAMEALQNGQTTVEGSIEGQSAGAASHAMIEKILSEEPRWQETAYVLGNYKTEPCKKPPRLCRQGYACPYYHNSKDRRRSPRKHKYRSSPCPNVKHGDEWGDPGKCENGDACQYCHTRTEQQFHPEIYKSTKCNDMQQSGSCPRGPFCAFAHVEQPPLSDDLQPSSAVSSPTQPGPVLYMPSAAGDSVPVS
Setting: RNA with constant flanks, human-mouse chimeric sites, ends assumed
All sequences stand within: GGGAGUUCUACAGUCCGACGAUC … CAACAGAGGAUUGAGCAUCA
Sequence | bound/input enrichment [ratio]
GUUGCCAGCUUCCGGUUCCGUUGGGCUCGGUUCUCUCCUGAGCUACGUGUCUCUACGCUCUCAAUCCGCCAUCCAACAAACAUGGAUGAUCAGGUAAUGCAGUUUGUGCCCAGCCGGCAG | 0.12
CUGAGGAUACCACUGAAGAGACCUUAAAAGGAGUCAUUGAGGGCUCUGUUCGUGCAAGAAUAGUCACUGAUCGGGAAACUGGUUCUUUCCAAAGGGUUGGUUUUGUAGACUUUAAUAGUG | 0.886
AAAGAAUGGAUAGAGUGUGCACACGGGAUCGGUUAUACCCGGGCGAAAAAGGAGUGCAAGAUAGAGUUCGAUGACUUCGAAGAGUGCUUGCUUCGGUACAAAACGAUGAGGCGAAUGCAU | 0.462
UACAUUUUAUUGUUGAGUUUCAUUUUCAUAUAUUCUUGUAGUGUCUGCUUGCCUGUGACUUCUGGUAAAAUAAAAUAAGCCUUUGAAAAUAUUUUAGCAUGGUAUUUAACAUUUUCUAAA | 1.84
CAGGGCAUCAUCUCUCGUGCUGUUAGACACCUGUUCAAGAGUAUUGAUGAGAAAAAGACCUCAGCGAUUAAAAACGGGCUUCCUGCUCCUGAAUUCAAAGUGAAUGCCCAGUUCCUAGAG | 0.176
CCACCAGGAUCCCAGAAACAUGACCCUUGCUGCCUACAAAGAGAAGAUGAAGGAGCUCCCACUAGUGUCCUUGUUCUGCUCCUGCUUCCUGGCCGAUCCCCUGAAUAAGUCGUCCUACAA | 0.822
AGUGUGCAGGAAUUCAUGACCUUUACAAGUCAACUGAUUGUGGAACGCUCGGGGAAAGGCAGCAGAGCUUCUGUCAAAGAACAAGACUAUCUUUGCCAUGUCUACGUCCGGAAUGAUAGU | 0.227
CUUAAUGUUAAUAUUUUUGAAUAAAUGAAGCUAAAAUGUCUGCUUUUGGUACAACACGCAUUAGCGAAAGGUUAAGUUUUGUUUUCCACUGAAGUACGUAAUACUUACUCAGAAAAAAAC | 0.816

Some of these lines once more (series 3):
Sequence | E-score
CGTGTCTC | -0.00304
AAGTCGAC | 0.052
CACTATCG | -0.0152
CGCATCCA | -0.149
CCCTTGCA | -0.22
CAGGTCGG | -0.309
AGCGCCCA | -0.299
ATGAGACG | -0.0805
AGTATTAA | 0.351
GAAAGGTC | -0.0363
TGCTAACA | 0.0462
CTATCGGC | -0.0909
